Measurements gathered from unrelated publications.
Lines come from different studies, so protocols differ. ± gives the spread as reported.
Sequence of UniProt P01024 (whole entry, unmodified, looked up): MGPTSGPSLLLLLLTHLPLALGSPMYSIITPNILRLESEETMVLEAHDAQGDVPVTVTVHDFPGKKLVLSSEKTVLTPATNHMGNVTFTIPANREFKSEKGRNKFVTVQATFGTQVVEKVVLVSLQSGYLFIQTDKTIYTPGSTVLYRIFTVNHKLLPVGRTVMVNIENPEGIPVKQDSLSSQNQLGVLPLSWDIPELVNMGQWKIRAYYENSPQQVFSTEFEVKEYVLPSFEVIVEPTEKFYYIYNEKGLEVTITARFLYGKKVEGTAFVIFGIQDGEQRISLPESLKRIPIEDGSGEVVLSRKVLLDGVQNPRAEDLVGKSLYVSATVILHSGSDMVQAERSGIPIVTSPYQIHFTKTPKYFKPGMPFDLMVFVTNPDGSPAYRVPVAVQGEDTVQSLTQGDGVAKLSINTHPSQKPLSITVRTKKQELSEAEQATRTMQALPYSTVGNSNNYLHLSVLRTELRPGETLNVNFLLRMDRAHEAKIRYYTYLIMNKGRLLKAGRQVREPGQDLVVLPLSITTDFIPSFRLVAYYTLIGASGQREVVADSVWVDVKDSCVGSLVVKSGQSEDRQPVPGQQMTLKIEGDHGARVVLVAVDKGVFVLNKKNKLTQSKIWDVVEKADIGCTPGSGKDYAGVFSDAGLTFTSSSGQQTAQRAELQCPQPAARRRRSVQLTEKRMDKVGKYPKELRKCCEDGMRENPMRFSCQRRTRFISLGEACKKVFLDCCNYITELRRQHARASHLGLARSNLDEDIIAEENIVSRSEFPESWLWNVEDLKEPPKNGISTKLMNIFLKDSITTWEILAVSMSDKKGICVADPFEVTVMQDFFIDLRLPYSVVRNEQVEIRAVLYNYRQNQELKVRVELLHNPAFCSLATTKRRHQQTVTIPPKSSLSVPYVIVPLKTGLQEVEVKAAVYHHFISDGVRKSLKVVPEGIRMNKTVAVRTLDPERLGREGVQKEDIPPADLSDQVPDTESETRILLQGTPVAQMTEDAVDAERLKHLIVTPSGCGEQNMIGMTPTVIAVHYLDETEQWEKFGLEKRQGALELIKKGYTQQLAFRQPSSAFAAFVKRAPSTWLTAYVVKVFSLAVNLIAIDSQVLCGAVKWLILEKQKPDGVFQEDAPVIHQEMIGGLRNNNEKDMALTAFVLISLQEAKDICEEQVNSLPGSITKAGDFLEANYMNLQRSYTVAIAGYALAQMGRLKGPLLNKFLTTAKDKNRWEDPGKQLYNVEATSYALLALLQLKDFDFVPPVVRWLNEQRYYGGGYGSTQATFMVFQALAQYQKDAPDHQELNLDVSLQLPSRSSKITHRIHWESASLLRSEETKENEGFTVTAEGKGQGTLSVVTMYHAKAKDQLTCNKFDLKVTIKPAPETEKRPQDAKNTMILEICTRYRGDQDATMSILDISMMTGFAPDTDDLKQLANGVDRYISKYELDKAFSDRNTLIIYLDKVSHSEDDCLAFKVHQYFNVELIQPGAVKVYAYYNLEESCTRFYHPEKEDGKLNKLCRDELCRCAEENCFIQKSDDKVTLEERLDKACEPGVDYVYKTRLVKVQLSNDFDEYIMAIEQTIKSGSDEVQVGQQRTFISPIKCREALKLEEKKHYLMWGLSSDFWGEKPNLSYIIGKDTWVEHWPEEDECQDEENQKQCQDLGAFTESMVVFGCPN
Sequence of UniProt P03951 (whole entry, looked up): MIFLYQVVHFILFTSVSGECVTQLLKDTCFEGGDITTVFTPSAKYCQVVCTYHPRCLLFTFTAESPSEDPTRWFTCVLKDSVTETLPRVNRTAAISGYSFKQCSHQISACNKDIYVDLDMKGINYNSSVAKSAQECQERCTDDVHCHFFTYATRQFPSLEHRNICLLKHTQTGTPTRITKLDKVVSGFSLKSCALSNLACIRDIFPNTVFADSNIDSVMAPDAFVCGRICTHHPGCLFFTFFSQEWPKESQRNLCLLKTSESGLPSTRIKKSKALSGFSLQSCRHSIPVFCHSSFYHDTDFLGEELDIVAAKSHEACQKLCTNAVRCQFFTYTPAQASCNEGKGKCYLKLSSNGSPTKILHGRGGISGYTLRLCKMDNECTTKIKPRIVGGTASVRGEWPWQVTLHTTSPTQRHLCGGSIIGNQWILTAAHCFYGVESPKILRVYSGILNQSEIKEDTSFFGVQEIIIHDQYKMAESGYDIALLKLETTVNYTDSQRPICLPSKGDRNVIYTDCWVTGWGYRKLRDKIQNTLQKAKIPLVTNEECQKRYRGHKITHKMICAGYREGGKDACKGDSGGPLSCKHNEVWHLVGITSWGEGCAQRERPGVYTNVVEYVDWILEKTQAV
Sequence of UniProt Q61143 (whole entry, unmodified, looked up): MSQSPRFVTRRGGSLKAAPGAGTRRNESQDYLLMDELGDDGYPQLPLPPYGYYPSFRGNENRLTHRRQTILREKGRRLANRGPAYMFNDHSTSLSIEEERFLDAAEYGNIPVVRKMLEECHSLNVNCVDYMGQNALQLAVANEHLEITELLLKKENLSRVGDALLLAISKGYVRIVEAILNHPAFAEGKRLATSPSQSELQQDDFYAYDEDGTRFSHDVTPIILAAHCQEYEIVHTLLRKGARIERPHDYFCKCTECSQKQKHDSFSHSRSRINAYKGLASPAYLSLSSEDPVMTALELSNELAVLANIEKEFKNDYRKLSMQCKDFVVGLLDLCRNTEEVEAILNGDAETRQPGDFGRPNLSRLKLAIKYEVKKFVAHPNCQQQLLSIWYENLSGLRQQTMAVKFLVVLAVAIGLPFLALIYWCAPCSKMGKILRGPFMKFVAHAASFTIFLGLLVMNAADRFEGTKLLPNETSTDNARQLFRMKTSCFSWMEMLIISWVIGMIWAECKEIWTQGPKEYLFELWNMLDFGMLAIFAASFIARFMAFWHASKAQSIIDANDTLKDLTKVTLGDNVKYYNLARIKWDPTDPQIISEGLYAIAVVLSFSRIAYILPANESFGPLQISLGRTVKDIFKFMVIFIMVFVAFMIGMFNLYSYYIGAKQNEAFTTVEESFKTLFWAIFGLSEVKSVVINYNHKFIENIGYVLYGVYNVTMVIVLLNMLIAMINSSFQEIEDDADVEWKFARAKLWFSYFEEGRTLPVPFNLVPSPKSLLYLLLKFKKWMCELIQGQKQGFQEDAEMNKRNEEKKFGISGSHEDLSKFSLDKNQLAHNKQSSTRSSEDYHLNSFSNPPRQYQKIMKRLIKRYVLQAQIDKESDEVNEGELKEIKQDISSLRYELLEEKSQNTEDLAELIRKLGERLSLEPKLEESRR
Sequence of UniProt P53341 (whole entry, looked up): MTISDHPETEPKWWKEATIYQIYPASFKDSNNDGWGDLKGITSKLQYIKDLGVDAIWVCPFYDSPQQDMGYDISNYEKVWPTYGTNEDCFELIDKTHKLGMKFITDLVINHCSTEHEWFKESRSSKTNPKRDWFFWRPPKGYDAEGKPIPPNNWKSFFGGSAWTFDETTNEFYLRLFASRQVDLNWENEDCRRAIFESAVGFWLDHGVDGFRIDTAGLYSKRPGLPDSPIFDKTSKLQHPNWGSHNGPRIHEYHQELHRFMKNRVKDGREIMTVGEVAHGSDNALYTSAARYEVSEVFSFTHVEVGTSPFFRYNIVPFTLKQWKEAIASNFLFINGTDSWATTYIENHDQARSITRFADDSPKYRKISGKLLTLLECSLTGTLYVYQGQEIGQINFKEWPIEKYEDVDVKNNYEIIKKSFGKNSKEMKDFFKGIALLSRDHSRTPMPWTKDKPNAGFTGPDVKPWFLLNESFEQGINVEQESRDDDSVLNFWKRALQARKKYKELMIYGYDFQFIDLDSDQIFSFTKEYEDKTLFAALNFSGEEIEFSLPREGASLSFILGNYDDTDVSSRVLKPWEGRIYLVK
Sequence of UniProt Q86TI2 (whole entry, looked up): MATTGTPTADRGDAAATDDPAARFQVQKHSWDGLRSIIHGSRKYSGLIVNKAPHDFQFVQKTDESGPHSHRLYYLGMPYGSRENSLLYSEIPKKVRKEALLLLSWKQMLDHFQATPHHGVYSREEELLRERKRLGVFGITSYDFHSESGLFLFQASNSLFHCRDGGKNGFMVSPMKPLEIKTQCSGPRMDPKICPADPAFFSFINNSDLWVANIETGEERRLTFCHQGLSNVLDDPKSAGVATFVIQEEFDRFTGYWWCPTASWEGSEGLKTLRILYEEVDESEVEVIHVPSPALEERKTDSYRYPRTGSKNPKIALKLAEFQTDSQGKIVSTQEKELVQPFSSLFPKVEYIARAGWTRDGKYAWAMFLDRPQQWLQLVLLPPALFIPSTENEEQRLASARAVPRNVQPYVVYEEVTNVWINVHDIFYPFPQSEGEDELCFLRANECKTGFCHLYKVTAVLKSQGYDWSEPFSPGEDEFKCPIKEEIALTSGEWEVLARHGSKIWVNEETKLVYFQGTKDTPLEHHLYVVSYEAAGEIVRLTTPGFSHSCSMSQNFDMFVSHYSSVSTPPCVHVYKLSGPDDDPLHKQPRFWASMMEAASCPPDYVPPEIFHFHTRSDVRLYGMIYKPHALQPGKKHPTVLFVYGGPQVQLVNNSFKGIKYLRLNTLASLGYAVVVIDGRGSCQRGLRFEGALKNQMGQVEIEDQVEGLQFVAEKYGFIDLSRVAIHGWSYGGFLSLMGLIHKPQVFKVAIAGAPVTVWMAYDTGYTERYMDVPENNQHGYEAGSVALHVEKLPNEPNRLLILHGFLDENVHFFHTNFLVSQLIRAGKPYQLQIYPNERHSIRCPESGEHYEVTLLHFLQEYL
Sequence of UniProt Q9Y294 (whole entry, looked up): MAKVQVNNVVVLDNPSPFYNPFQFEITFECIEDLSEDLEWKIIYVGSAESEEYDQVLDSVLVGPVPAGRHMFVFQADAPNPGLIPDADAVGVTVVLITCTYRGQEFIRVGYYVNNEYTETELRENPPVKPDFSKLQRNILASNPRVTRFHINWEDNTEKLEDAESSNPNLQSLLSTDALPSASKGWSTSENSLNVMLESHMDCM

| SMILES | target | assay | system | conditions | scale | measurement | result |
| --- | --- | --- | --- | --- | --- | --- | --- |
| OC[C@H]1O[C@@H](Oc2ccc(-c3cn([C@H]4[C@H](O)[C@@H](O)[C@H](c5cn([C@H]6[C@H](O)[C@@H](O)[C@H](n7cc(-c8ccc(O[C@@H]9O[C@H](CO)[C@H](O)[C@H](O)[C@H]9O)cc8)nn7)O[C@@H]6CO)nn5)O[C@@H]4CO)nn3)cc2)[C@H](O)[C@@H](O)[C@H]1O | PA-I galactophilic lectin (lecA, Pseudomonas aeruginosa, UniProt Q05097) | isothermal titration calorimetry | – | 25 °C | – | ΔH | -16.8 ± 0.5 kcal/mol |
| O=C(c1cc2c(s1)CCCCC2)N1CCC(n2c(=O)[nH]c3ccccc32)CC1 | Short transient receptor potential channel 6 (Trpc6, Mus musculus, UniProt Q61143, K675R) | ion current, agonist, whole-cell patch clamp | – | 100 µM, K675R mutant | – | maximal current density | 1.43 ± 0.2 pA/pF |
| Cc1ccc(C(=O)Nc2ccc(CP(=O)(O)O)cc2CP(=O)(O)O)cc1NC(=O)c1cccc(NC(=O)Nc2cccc(C(=O)Nc3cc(C(=O)Nc4ccc(CP(=O)(O)O)cc4CP(=O)(O)O)ccc3C)c2)c1 | Coagulation factor XI (F11, Homo sapiens, UniProt P03951) | enzyme activity, inhibitor | – | pH 7.4, 37 °C, with: S-2366 substrate | – | Hill slope | 1.9 ± 0.5 |
| O=C(c1ccc(O)cc1)C1(O)Oc2cc(O)cc(O)c2C1=O (centres unmarked) | laccase (Trametes versicolor) | substrate | – | – | – | Vmax | 1.86 ± 0.3 µmol/min/mg |
| CCOc1ccc(C[C@@H]2NC(=O)[C@H](C(C)C)NC(=O)[C@@H](NC(=O)[C@@H](NC(C)=O)[C@@H](C)CC)CSSC[C@@H](C(=O)N[C@H](C(N)=O)[C@@H](C)O)NC(=O)[C@H](CCCNC(=N)N)NC(=O)[C@H](Cc3c[nH]cn3)NC(=O)[C@H](C)NC(=O)CNC(=O)[C@H](Cc3c[nH]c4ccccc34)NC(=O)[C@H](CC(=O)O)NC(=O)[C@H](CCC(N)=O)NC2=O)cc1 | Complement C3 (Homo sapiens, UniProt P01024) | ITC | – | pH 7.4, 25 °C | – | −TΔS | 6.6 kcal/mol |
| C=C1C(=O)O[C@@H]2[C@H]3C(CO)=CC(=O)C3=C(C)C[C@H](OC(=O)Cc3ccc(O)cc3)[C@@H]12 | Alpha-glucosidase MAL12 (MAL12, Saccharomyces cerevisiae S288c, UniProt P53341) | enzyme activity, inhibitor | – | 65.22 µM | – | Vmax | 0.022 mM/min |
| CC[C@H](C)[C@H](NC(C)=O)C(=O)N[C@H]1CSSC[C@@H](C(=O)N[C@@H](CC(C)C)C(N)=O)NC(=O)[C@H](CCCNC(=N)N)NC(=O)[C@H](Cc2c[nH]cn2)NC(=O)[C@H](C)NC(=O)CN(C)C(=O)[C@H](Cc2c[nH]c3ccccc23)NC(=O)[C@H](CC(=O)O)NC(=O)[C@H](CCC(N)=O)NC(=O)[C@H](Cc2cn(C)c3ccccc23)NC(=O)[C@H](C(C)C)NC1=O | Complement C3, C3b fragment (Homo sapiens, UniProt P01024) | SPR | – | 25 °C | relative to: [Trp(Me)4]-Ac-compstatin | relative KD | 2.6 |
| CC[C@H](C)[C@H](NC(=O)[C@H](CCCNC(=N)N)NC(C)=O)C(=O)N1CCC[C@H]1C(=O)N[C@@H](COP(=O)(O)O)C(=O)N[C@@H](Cc1ccc(O)cc1)C(=O)N[C@@H](CCCNC(=N)N)C(=O)N[C@@H](Cc1ccc(O)cc1)C(=O)N[C@@H](CCCNC(=N)N)C(N)=O | Activity-regulated cytoskeleton-associated protein, residues 207–277 (ARC, Homo sapiens, UniProt Q7LC44) | binding, isothermal titration calorimetry | – | pH 7.4, 25 °C | – | -TΔS | 60.2 kcal/mol |
| O=C(CCl)N(CCNC(=O)C(F)(F)F)c1ccc([N+](=O)[O-])cc1 | Glutathione S-transferase omega-1 (GSTO1, Homo sapiens, UniProt P78417) | probe labelling, inhibitor, competitive ABPP | MDA-MB-435 | 1 µM, 18 h, serum-containing medium | – | inhibition | 25% |
| CC[C@H](C)[C@H](NC(=O)[C@H](CCCNC(=N)N)NC(=O)NC[C@H](CCC(N)=O)NC(=O)NC[C@H](CC(C)C)NC(=O)NC[C@H](CCCNC(=N)N)NC(=O)NC[C@H](Cc1ccc2ccccc2c1)NC(=O)[C@H](CCCNC(=N)N)NC(=O)[C@H](CCC(=O)O)NC(C)=O)C(=O)N[C@@H](C)C(N)=O | Histone chaperone ASF1A (Homo sapiens, UniProt Q9Y294) | isothermal titration calorimetry | – | concentration not given, pH 7.5, 20 °C | – | binding enthalpy | -3.5 ± 1.4 kcal/mol |
| CCC1(CC)C(=O)N(c2cccc(CN3CCN(c4cc(C)nc5ccc(Br)cc45)CC3)c2)C1=O | Dipeptidyl peptidase 9 (DPP9, Homo sapiens, UniProt Q86TI2) | probe labelling, inhibitor, competitive ABPP mass spectrometry | U-937 cell lysate | 10 µM, with: FP-biotin 10 µM | relative to: DMSO over compound | SILAC ratio | > 3 |

Some of these lines once more:
| SMILES | target | assay | system | conditions | scale | measurement | result |
| --- | --- | --- | --- | --- | --- | --- | --- |
| O=C(c1ccc(O)cc1)C1(O)Oc2cc(O)cc(O)c2C1=O (centres unmarked) | laccase (Trametes versicolor) | substrate | – | – | – | Vmax | 1.86 ± 0.3 µmol/min/mg |
